Measurements gathered from unrelated publications.
Each numbered part is a random draw from the data of one study; scales do not carry over between parts.

Sample 1
Target: RING finger protein unkempt homolog, zinc fingers 1-6, GST-SBP tag (UNK, Homo sapiens, UniProt Q9C0B0, residues 30-357)
Technique: RNA Bind-n-Seq
Form: RNA
Sample: in vitro
Concentration: not given
Setting: RNA with constant flanks, human and mouse sites, ends assumed
Baseline: input RNA pool
Direction: higher = stronger binding
All sequences stand within: GGGAGUUCUACAGUCCGACGAUC … CAACAGAGGAUUGAGCAUCA
Construct (chain): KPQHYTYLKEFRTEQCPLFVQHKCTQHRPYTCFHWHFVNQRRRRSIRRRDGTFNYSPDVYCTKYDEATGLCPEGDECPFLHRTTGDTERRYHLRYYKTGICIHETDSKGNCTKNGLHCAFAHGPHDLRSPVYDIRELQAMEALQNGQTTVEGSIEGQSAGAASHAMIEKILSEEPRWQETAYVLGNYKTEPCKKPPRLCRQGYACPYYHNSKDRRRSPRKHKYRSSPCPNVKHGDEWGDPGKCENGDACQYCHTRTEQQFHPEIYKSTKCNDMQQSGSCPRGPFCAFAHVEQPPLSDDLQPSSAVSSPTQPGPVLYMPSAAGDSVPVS
Oligonucleotide	bound/input enrichment
CAAGGUGUACCUAAAGAGAAGCUUACUGGUACCAUCCAAAAUGAUAUACUAAAGGAAUUUAUGGUUCGAAAUACAUACAUUUUUCCUCCAGAACCAUCCAUGAAAAUUAUUGCUGACAUA	0.196 ratio
AACAGCAUCAUACAUAGUGAAUGAUGUUCAUUGGAAAAUUCUAAAAUUUGUCCUUGUCUAGGUUGAGAACUUUUACACACACUAAGAUAAAGAUAGAAAUCUGACAUGCUCACUCAAUUC	0.528 ratio
CUCUCCACAGAAAAUUUCCAGAUCAAGCAGGAUUCUUCUACUGGCUCCUACUCCAUCAAUUUUGUUCAAAAUCCGAAUAAUAAUAGAUAACAGAAAUAACAGUCUUAAAGGCUGACUGGG	0.26 ratio
GGGAGCGCCAUCAGAACCCAGGGAAUCUUUCUGAAGCCACACUCAUCUGACACACGUACACUUAGACCUGUCUCUUCUUUUGCUUUUCAAUUUUGGAAAGGGAUCUCUGUCCAGGUCAGC	0.293 ratio
GCAGAUGAAGCAGAGAGUCUCAAACUGUGGAACUCAUUCUGUAAUUCUGAUGACCCCUACAACCCUUUAAAUUUUAAGGCUCCUUUUCAAACAUCAGGGGAAAAUGAGAAAGGCUGUCGU	0.0689 ratio
UCCAAGAGGCCUUCUAUGUGAAAGCCCGAGACAGAAAACUUCUUGCUAUCUACCUCCACCAUGAUGAAAGUGUACUAACCAACGUGUUCUGCUCACAAAUGCUUUGUGCUGAAUCCAUUG	0.207 ratio
GAUGGCCGGCGCUACAUGAUGAUCGUGGACCCUGCCAUCAGCAGCGCAGGCCCUGCUGGGAGUUACAGGCCCUACGACGAGGGUCUGCGGAGGGGCGUGUUCAUCACCAACGAGACUGGG	0.136 ratio
AAGAAACGGCACCUGGAAGAGUCCUACGACUCCCUGAGCGAUGAGCUUGCCAGGCUCCAGGCGCACGAAACUGUACACGAGGUAGCUCUGAAAGACAAGGAGCCAGACACACAGGACGCG	0.205 ratio
ACGAGCUGAUGGAUUGACGUGCGGGCUGCUUAGCCCAGACCGCCGCCCUCGCGCUCGCGCCUUAGACUGGAAUUGGCUGUCUCGGGGCUCUGGCCGCCGGCCUCUCCUCCGCGUUUUCCU	0.0517 ratio
UUUGGAUCUCGCUUACAAGAAACCUUUUCGUUGGACCUUCUCAAAACUGCAUUUAUCAAUAGCUGCUACAUCAAAAGCGAAGAGGCGAAACGUCAGAGCCUUGGCAUAGAGAAAGAAGCU	0.766 ratio
CAGUCACCGCUUUCUUCUCUAAAACAACUUCUUUUUUUUUUUUAACACAUCUUUUCCAUGUAGCAACCAAAGCCAGAGCCAUGUUCUAACCCUAUGCCCUUCUCAAGCCUGGCUGCUCAC	2.2 ratio

Sample 2
Target: Interferon regulatory factor 5, full length, phosphomimetic (IRF5, Homo sapiens, UniProt Q13568-2, residues 1-514, S451D/S453D/S456D/S462D)
Technique: protein-binding microarray
Form: double-stranded DNA, one strand shown
Sample: in vitro
Concentration: 940 nM top
Setting: 60-bp whole probe
Added: salmon DNA 0.4 mg/ml
Baseline: random background probes
Direction: higher = stronger binding
All sequences stand within: GCCTAGCAC … GTCTTGATTCGCTTGACGCTGCTG
Oligonucleotide	fitted relative affinity [z-score]
TTAGGACTGGATTTCGGTTAGTGCTAG	0.451
GACGGTATCCTTCTCATGACGTGCTAG	0.758
GACGGTTTCTGGTTTCGGGACGTGCTA	5.76
TCATCATTTTCTTTAACACTGTGCTAG	1.69
GACGGTCTCCTTCTCCTTACGTGCTAG	0.324
TTAGGTATCGGGTGTCGGTTAGTGCTA	5.99
GACGATTTCGGTTCCGGGACGTGCTAG	2.13
TTCGGTATCGACTATCGGTTAGTGCTA	5.9
TTAGATTTCCTTTCCCTTTAGTGCTAG	1.32
TTAGGTTTCCTTAGCCTTTAGTGCTAG	1.1
GACGGATTCGACTATCGGGACGTGCTA	0.0514
TTACCCCATCCCCCTTTTCTGTGCTAG	0.752
TTAGGTCTAGGTCTCGGTTAGTGCTAG	1.39
ATAGGTTTCCTACTGCTTTAGTGCTAG	0.483
GACGGACTGGACACCGGGGACGTGCTA	-0.683
TTAGAACTGGGGTTTCGATGAGTGCTA	3.89

Sample 3
Target: RNA binding protein fox-1 homolog 2, RRM domain, GST-SBP tag (RBFOX2, Homo sapiens, UniProt O43251-10, residues 100-194)
Technique: RNA Bind-n-Seq
Form: RNA
Sample: in vitro
Concentration: 365 nM
Setting: natural RNA segment, single round, ends assumed
Baseline: no-protein control
Direction: higher = stronger binding
All sequences stand within: GGGAGUUCUACAGUCCGACGAUC … UGGAAUUCUCGGGUGCCAA
Residues (chain): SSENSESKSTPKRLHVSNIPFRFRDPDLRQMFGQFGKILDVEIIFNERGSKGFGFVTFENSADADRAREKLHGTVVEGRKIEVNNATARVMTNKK
Oligonucleotide	RBNS enrichment (R)
UGCCCAGGAUAGCUCUCUUCUAUAGCCAGGAUGUGGAGCUUAAGGAGACUCCAAUGUUUACUUUCUCCAGUCCUAGCUCUGCCAUAUAAACACUGUCUCAUGUUGUGCUU	0.39
CCUAUCUCAGGGAUACUGGACUUGACGACACAGAUGAACAAUUAAAGUGGAAACCGCUUCCCUUUUCUCCUCUGUGGCAGUUACAAUUUUGACUUCAGGCCUGAGAAAAA	0.222
GGCUAAUUUUUGUAUUUUUUGUAGAGACGGGGUUUUGCCAUGUUGCCAAGGCUGGUUUCAAACUCCUGGACUCAAGAAAUCCACCCACCUCAGCCUCCCAAAGUGCUAGG	0.426
AAGGGGUUGGUUGAGGUGGAAGCCCUCCUUCCACGGAUCCAUGUAGCAGGACUGAAUUGUCCCCAGUUUGCAGAAAAGCACCUGCCGACCUCGUCCUCCCCCUGCCAGUG	0.589
CAGAAAAGAAUGAUGUCCCUUUCCUUGCCAUGUCCUUGAGCCUGUCAGUAAUGAACUGGCUGCAAGGGGACAGCACCUCUCAGCCUGCACAGCAGCUUGUCAGAGUGAGA	0.574
UCACGGGAAUGGAGUCCAUGCUAGAAAGAGCUCAGUGUUGGGCUGGGUUUGCCAGUAGAACACUGCGUUCCAGUCACCCCGGUCUUGCCAGAAGAAACCAGCACCUCUUU	0.589
GUGGGACCCAGGCGUGGGGGGACCUUUCUGCCCCACAUUCCUGGCAUUCCCCCCAAGUUUAUUUCUACUUUCCAGAAACAAGCCACGGGAAGGGAAGGAACCUGCAGCAG	0.22
AACACCCAUUUGGGGUUACCAUGUCCAUCCCCCAAGGGGGGCCCUGCCCCUCGAGUCGAUGGUGUCCCGCAUCUACUCAUGUGAACUGGCCUUGGCGAGGGCUGGUCUGU	0.427
CUAGGUAUCUUCUAGAGCAGUGAUUCUCAACCUUGCUAAUGCUGUGACCCUUUAAUACAUACAGUUCCUCAUGGUGUGGUGACCCCCCCCAACCAUAAAAUUAUCUUAUU	0.727
AAACACAAUAUAUAUCAAUAUCUAUAUAUCUAUAUAUCGAUCUAUAUAAACUACUAGCUUUUCCUUUGGUGUUUGCGCCUUUUUCCUAUCUCAGUUUGAUGGGUGGCCAU	0.529
CAUCCUAGUUCCAGGUGUAACUUGGUGGCCAGAAUUGAGAAGAGUGCCAAAUGACCACCCGUCAGGCAGAUUGAGGGCCAUCACUUCAAACAUAGAUUAAAUUUGUUUAG	0.364
CUCCUUGCCUGGCCUUAGCCGUUUCUUGGAGCAUCACUAAUGGCCCAGCCCCCAGGCACAAGGGGCAGAGAGACAGGCAGUCGCCCCAGAUAGGCUCCGGGGAAGUCCAU	0.255

Sample 4
Target: Prothrombin, mature alpha-thrombin (F2, Homo sapiens, UniProt P00734)
Technique: aptamer microarray, sandwich
Form: DNA with 2'F-ANA
Sample: in vitro
Concentration: 200 nM
Setting: whole 15-mer aptamer, many near background
Added: Cy3 exosite-II aptamer, 400 nM
Direction: higher = stronger binding
Oligonucleotide: GGTTGGTGTGGTTGG
Modification	mean fluorescence intensity [a.u.]
2'F-ANA at 3 4 7 9 14	322
2'F-ANA at 3 5 6 7 8 11 12 15	209
2'F-ANA at 3 6 9 13 15	800
2'F-ANA at 1 2 3 4 5 9	60.7
2'F-ANA at 1 2 3 4 10 12	78.8
2'F-ANA at 1 2 3 4 5 14	40.6
2'F-ANA at 1 6 8 9 10 11 12 15	64.4
2'F-ANA at 4 7 9 10 14	62.8
2'F-ANA at 1 2 5 6 7 8 9 10 12 13 15	49.3
2'F-ANA at 1 4 7 8 9 11 12 13 14 15	105
2'F-ANA at 4 6 7 11 13	187
2'F-ANA at 3 4 5 6 7 13	81.7
2'F-ANA at 2 3 5 6 7 12 15	198
2'F-ANA at 5 11 12 13 15	97.9
2'F-ANA at 1 2 5 9 11 12	95.6
2'F-ANA at 4 6 7 8 12 15	616
2'F-ANA at 1 2 3 4 6 8 10 12 13 14 15	109
2'F-ANA at 1 3 5 8 9 11 12 13	81.2
2'F-ANA at 1 2 4 5 9 10 11 13 14 15	49
2'F-ANA at 3 8 9 11 12 13 15	1110
2'F-ANA at 1 3 4 5 6 8 13 14 15	61.7
2'F-ANA at 1 2 4 5 6 7 9 13	57.6
2'F-ANA at 1 2 4 5 7 10 12 14	45.1
2'F-ANA at 6 9 10 12 13	174
2'F-ANA at 1 3 4 7 9 11 12 14 15	75.3

Sample 5
Target: Histone acetyltransferase KAT6A, winged helix 1, GST fusion (KAT6A, Homo sapiens, UniProt Q92794, residues 1-85)
Technique: protein binding microarray
Form: double-stranded DNA, one strand shown
Sample: in vitro
Concentration: not given
Setting: 8-mer, flanks averaged, mean of 2 arrays, mostly near background
Baseline: not given
Direction: higher = stronger binding
Residues (chain): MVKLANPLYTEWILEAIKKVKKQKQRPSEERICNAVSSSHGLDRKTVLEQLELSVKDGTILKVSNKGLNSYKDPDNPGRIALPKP
Oligonucleotide	E-score
GGGGGAGA	-0.0955
AACGTATG	-0.172
CCTATCTA	-0.143
AGAGTGCT	-0.0752
GAGTAGAA	-0.0681
ACCGGACA	-0.082
AGAAAGAA	-0.0327
AAACGGCC	0.333
AGTTTTTA	-0.161
AGGGGGAC	-0.112
CAAGTATA	-0.0686
GATGAGGC	-0.0904
CTCATTAC	0.0499
CAGAGCGC	0.302
AGGACAGG	-0.226
ACAGGTTG	-0.274
ATATGGAC	-0.14
CATTACCC	0.0468
CCAATATC	-0.198
GACTGACC	0.0322

For quick reference, copied from above (sample 2):
Oligonucleotide	fitted relative affinity [z-score]
TTAGGTTTCCTTAGCCTTTAGTGCTAG	1.1
GACGGTCTCCTTCTCCTTACGTGCTAG	0.324
GACGGTTTCTGGTTTCGGGACGTGCTA	5.76
TTAGGTCTAGGTCTCGGTTAGTGCTAG	1.39
GACGGATTCGACTATCGGGACGTGCTA	0.0514
